{"data": "Earlier results, collected from citations in different studies", "note": "Lines come from different studies, so protocols differ. ± marks the error that the study gave.", "chain of UniProt Q9H422 (whole entry, looked up)": "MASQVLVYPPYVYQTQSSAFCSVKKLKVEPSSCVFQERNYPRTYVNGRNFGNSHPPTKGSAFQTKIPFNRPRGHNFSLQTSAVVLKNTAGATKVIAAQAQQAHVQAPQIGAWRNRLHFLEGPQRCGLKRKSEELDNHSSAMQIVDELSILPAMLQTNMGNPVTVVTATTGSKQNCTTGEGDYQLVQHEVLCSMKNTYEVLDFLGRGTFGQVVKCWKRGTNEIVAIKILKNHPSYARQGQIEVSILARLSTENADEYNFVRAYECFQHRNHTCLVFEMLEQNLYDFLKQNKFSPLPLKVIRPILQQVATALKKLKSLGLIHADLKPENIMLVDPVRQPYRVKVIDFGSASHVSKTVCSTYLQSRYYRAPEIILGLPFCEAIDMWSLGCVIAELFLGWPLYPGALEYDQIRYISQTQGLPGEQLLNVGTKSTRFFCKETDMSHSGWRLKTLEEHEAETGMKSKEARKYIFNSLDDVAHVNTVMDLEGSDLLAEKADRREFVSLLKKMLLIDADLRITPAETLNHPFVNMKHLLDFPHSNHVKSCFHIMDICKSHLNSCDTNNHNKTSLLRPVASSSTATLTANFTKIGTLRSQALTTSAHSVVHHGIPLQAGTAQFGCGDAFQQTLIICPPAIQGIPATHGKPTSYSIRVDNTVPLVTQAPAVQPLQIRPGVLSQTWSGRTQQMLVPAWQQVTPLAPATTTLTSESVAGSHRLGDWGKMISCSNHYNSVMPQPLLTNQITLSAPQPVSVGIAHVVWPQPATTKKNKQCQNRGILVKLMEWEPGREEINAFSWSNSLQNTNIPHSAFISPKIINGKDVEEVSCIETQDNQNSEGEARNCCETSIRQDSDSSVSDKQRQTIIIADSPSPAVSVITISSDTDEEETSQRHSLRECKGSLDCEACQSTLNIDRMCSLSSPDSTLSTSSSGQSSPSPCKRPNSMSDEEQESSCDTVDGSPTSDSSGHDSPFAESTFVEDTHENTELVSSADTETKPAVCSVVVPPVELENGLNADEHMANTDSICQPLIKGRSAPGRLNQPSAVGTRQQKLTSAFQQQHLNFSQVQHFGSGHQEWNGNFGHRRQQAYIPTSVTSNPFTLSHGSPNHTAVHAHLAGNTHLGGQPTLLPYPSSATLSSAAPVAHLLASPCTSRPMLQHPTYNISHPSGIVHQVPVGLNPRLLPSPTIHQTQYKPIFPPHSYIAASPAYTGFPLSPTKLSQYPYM"}
{"Compound": "CC1(C)S[C@@H]2[C@H](NC(=O)[C@H](N)c3ccccc3)C(=O)N2[C@H]1C(=O)O", "tested on": "Escherichia coli", "system": "clinical isolate RKI 131/08", "quantity": "MIC", "value": "> 16 µg/mL"}
{"Compound": "COCCc1ccc(OCC(O)CNC(C)C)cc1 (stereo not shown)", "system": "human fasted", "conditions": "100 mg multiple doses, day 7, mean", "quantity": "AUC(0-24 h)", "value": "650 ng·h/mL"}
{"Compound": "CC(C)COc1ccc(CNC(=O)N(Cc2ccc(F)cc2)C2CCN(C)CC2)cc1", "system": "plasma", "quantity": "free Cmax", "value": "1.25 nM"}
{"Compound": "COc1cc(N)c(Cl)cc1C(=O)NC1CCN(CCCOc2ccc(F)cc2)CC1OC (stereo not shown)", "system": "human", "quantity": "free Cmax", "value": "9.81 nM"}
{"Compound": "Cn1c(=O)oc2ccc(-c3ccc(C[C@@H](C#N)NC(=O)[C@@H]4CNCCCO4)cc3)cc21", "system": "human, urine", "conditions": "dose not given, steady state", "scale": "reference: dose", "quantity": "unchanged renal excretion", "value": "~20%"}
{"Compound": "Cc1c(C(=O)NN2CCCCC2)nn(-c2ccc(Cl)cc2Cl)c1-c1ccc(Cl)cc1", "system": "water", "quantity": "solubility", "value": "< 1000 µg/mL"}
{"Compound": "CN[C@H](CC(C)C)C(=O)N[C@H]1C(=O)N[C@@H](CC(N)=O)C(=O)N[C@H]2C(=O)N[C@H]3C(=O)N[C@H](C(=O)N[C@H](C(=O)O)c4cc(O)cc(O)c4-c4cc3ccc4O)[C@H](O)c3ccc(c(Cl)c3)Oc3cc2cc(c3O[C@@H]2O[C@H](CO)[C@@H](O)[C@H](O)[C@H]2O[C@H]2C[C@](C)(N)[C@H](O)[C@H](C)O2)Oc2ccc(cc2Cl)[C@H]1O", "system": "human, plasma", "quantity": "fu", "value": "67%"}
{"Compound": "CN[C@H]1CC[C@@H](c2ccc(Cl)c(Cl)c2)c2ccccc21", "system": "human children and adolescents", "conditions": "dose not given, weight-adjusted plasma concentration", "scale": "reference: adults", "quantity": "lower exposure", "value": "22%"}
{"Compound": "Nc1ncnc2c1ncn2[C@@H]1O[C@H](CO)C[C@@H]1F", "system": "human", "conditions": "4.5 mg/kg", "quantity": "oral bioavailability", "value": "65 to 75%"}
{"Compound": "CN(C)C(=O)c1cc2cnc(Nc3ccc(N4CCNCC4)cn3)nc2n1C1CCCC1", "system": "human", "conditions": "400 mg single dose, with: ritonavir 100 mg twice daily for 14 days", "scale": "reference: compound alone", "quantity": "increase in AUCinf", "value": "3.2 fold"}
{"Compound": "CC(=O)Oc1cccc2c1C(=O)c1c(OC(C)=O)cc(C(=O)O)cc1C2=O", "system": "human", "conditions": "concentration not given, clinical", "quantity": "diarrhoea incidence", "value": "41%"}
{"Compound": "CC(C)C[C@H](NC(=O)[C@H](Cc1ccccc1)NC(=O)c1cnccn1)B(O)O", "system": "human patients", "quantity": "peripheral neuropathy incidence", "value": "30 to 60%"}
{"Compound": "Nc1cc(C(F)(F)F)c(-c2nc(N3CCOCC3)nc(N3CCOCC3)n2)cn1", "tested on": "HIPK3 (Homo sapiens, UniProt Q9H422)", "assay": "enzyme activity", "conditions": "10 µM", "scale": "reference: untreated", "quantity": "remaining activity", "value": "78%"}
{"Compound": "C[C@H](NCc1ccc(OCc2ccccc2F)cc1)C(N)=O", "system": "plasma", "quantity": "free Cmax", "value": "0.186 nM"}
{"Compound": "C[Si]1(C)O[Si](C)(C)O[Si](C)(C)O[Si](C)(C)O[Si](C)(C)O1", "conditions": "25 °C", "quantity": "log KAW", "value": 3.13}
{"Compound": "CCOc1cc(CC(=O)N[C@@H](CC(C)C)c2ccccc2N2CCCCC2)ccc1C(=O)O", "system": "supercritical CO2", "quantity": "crossover pressure", "value": "180 to 200 bar"}
{"Compound": "Cc1cc(-c2nccc3c2ccn3CC(=O)Nc2ccc(-c3cnccn3)cn2)ccn1", "system": "dog", "conditions": "30 mg/kg/day, day 28", "quantity": "total plasma concentration", "value": "6390 nmol/L"}
{"Compound": "C[C@H]1COCCN1c1nc(-c2cnc(N)cc2C(F)F)nc(N2CCOCC2)n1", "tested on": "786-O", "quantity": "GI50", "value": "703 nM"}
{"Compound": "[H]/N=C(/N)N[C@H]1[C@H](O)[C@@H](O)[C@H](O[C@@H]2O[C@@H](C)[C@](O)(C=O)[C@H]2O[C@@H]2O[C@@H](CO)[C@H](O)[C@@H](O)[C@@H]2NC)[C@@H](N/C(N)=N\\[H])[C@@H]1O", "system": "plasma", "quantity": "plasma fraction unbound", "value": 0.66}
{"Compound": "O=C(c1cc(Cc2n[nH]c(=O)c3ccccc23)ccc1F)N1CCN(C(=O)C2CC2)CC1", "system": "male", "conditions": "80 mg/kg", "quantity": "AUC(0-inf)", "value": "14400 ng·h/mL"}
{"Compound": "CNCc1cc(-c2ccccc2F)n(S(=O)(=O)c2cccnc2)c1", "system": "human, plasma", "conditions": "15 mg single dose, observed clinical data", "quantity": "Cmax", "value": "13.6 ng/mL"}
{"Compound": "Cc1cc2c(s1)Nc1ccccc1N=C2N1CCN(C)CC1", "system": "healthy male volunteers", "conditions": "dose not given, with: carbamazepine 200 mg twice daily for 2 weeks", "quantity": "AUC(0-inf) decrease", "value": "34%"}
{"Compound": "CC(C)(C)c1cc(C(C)(C)C)c(NC(=O)c2c[nH]c3ccccc3c2=O)cc1O", "quantity": "logP octanol/water", "value": 5.68}
{"Compound": "O=C1OC2(c3ccc(O)cc3Oc3cc(O)ccc32)c2ccccc21", "system": "NaOH solution", "quantity": "fluorescence quantum yield", "value": 0.92}
{"Compound": "Nc1ccn([C@H]2CO[C@@H](CO)S2)c(=O)n1", "system": "human", "conditions": "400 mg", "quantity": "oral bioavailability", "value": "65 to 80%"}
{"Compound": "Nc1ccn([C@@H]2O[C@H](CO)[C@@H](O)C2(F)F)c(=O)n1", "system": "metastatic pancreatic cancer patients", "conditions": "dose not given", "quantity": "grade 3 or higher weakness", "value": "7%"}
{"Compound": "CC#CC(=O)N[C@H]1CCCN(c2c(F)cc(C(N)=O)c3[nH]c(C)c(C)c23)C1", "system": "human", "conditions": "10 mg once daily", "quantity": "AUC(0-last)", "value": "100 ng·h/mL"}
{"Compound": "C[C@H]1CO[C@@H]2Cn3cc(C(=O)NCc4ccc(F)cc4F)c(=O)c(O)c3C(=O)N12", "system": "human", "conditions": "oral, two 5 mg tablets, second study", "scale": "reference: fed over fasted", "quantity": "AUC(0-inf) ratio", "value": 1.04}
{"Compound": "Cc1cn([C@H]2C[C@H](N=[N+]=[N-])[C@@H](CO)O2)c(=O)[nH]c1=O", "system": "mouse", "conditions": "15 mg/kg", "quantity": "oral bioavailability", "value": "85%"}
{"Compound": "CC(C)(O)c1ccccc1CC[C@@H](SCC1(CC(=O)O)CC1)c1cccc(/C=C/c2ccc3ccc(Cl)cc3n2)c1", "system": "plasma", "conditions": "concentration not given, total, steady state", "quantity": "Cmax", "value": "890 nM"}
{"Compound": "Cc1cc(C)c(CNC(=O)c2cc(Cl)c3c(c2C)O[C@@](C)([C@H]2CC[C@H](N(C)C)CC2)O3)c(=O)[nH]1", "system": "human", "conditions": "200 mg", "quantity": "AUC(0-inf)", "value": "10300 ng·h/mL"}
{"Compound": "COc1cc2c(Oc3ccc4[nH]c(C)cc4c3F)ccnc2cc1OCC1(N)CC1", "system": "human", "conditions": "16 mg single dose", "quantity": "half-life", "value": "97.9 ± 14.8 h"}
{"Compound": "CNC(=O)c1c(C)oc2cc(Oc3ncnc4cc(OC)c(OC)cc34)ccc12", "assay": "clinical DDI study", "system": "human", "conditions": "dose not given, with: itraconazole, CYP3A inhibitor", "quantity": "exposure change", "value": "no effect"}
{"Compound": "Cc1cn([C@H]2C=C[C@@H](CO)O2)c(=O)[nH]c1=O", "system": "human", "conditions": "40 mg", "quantity": "oral bioavailability", "value": "68 to 100%"}
{"Compound": "CCOC(=O)C1=C(COCCN)NC(C)=C(C(=O)OC)C1c1ccccc1Cl (stereo not shown)", "system": "supercritical CO2", "quantity": "crossover pressure", "value": "160 to 180 bar"}
{"Compound": "c1ccc2c(c1)ccc1ccccc12", "assay": "substrate", "system": "human liver microsomes", "quantity": "Km", "value": "0.51 µM"}
{"Compound": "CO[C@]1(C(=O)N[C@@H](C)c2ccc(-n3cc(F)cn3)nc2)CC[C@H](c2nc(C)cc(Nc3cc(C)[nH]n3)n2)CC1", "system": "healthy human, urine and feces", "conditions": "dose not given, time not given", "scale": "reference: dose", "quantity": "unchanged drug recovered", "value": "~70.9%"}
{"Compound": "CNC(=O)c1ccccc1Sc1ccc2c(/C=C/c3ccccn3)n[nH]c2c1", "system": "plasma", "conditions": "concentration not given, total, steady state", "quantity": "Cmax", "value": "160 nM"}
{"Compound": "CC(C)Nc1nc2cc(Cl)c(Cl)cc2n1[C@H]1O[C@@H](CO)[C@H](O)[C@@H]1O", "system": "human, urine", "conditions": "dose not given", "quantity": "dose excreted unchanged in urine", "value": "< 2%"}
{"Compound": "CC(C)Cc1ccc(C(C)C(=O)O)cc1 (stereo not shown)", "system": "water", "quantity": "solubility", "value": "< 1000 µg/mL"}
{"Compound": "COc1cc(Nc2c(C#N)cnc3cc(OCCCN4CCN(C)CC4)c(OC)cc23)c(Cl)cc1Cl", "system": "FaSSIF", "conditions": "literature value", "quantity": "solubility", "value": "13.2 µg/mL"}
{"Compound": "CC(=O)N[C@@H]1CCC[C@H](C(=O)Nc2cc(-c3cnn4c3CC(C)(C)C4)c(Cl)cn2)C1", "system": "mouse", "quantity": "half-life", "value": "0.18 h"}
{"Compound": "Cc1ccc(Nc2nccc(N(C)c3ccc4c(C)n(C)nc4c3)n2)cc1S(N)(=O)=O.Cl", "system": "water", "quantity": "solubility", "value": "< 1000 µg/mL"}
{"Compound": "C#C[C@]1(O)CC[C@H]2[C@@H]3CCc4cc(O)ccc4[C@H]3CC[C@@]21C", "system": "human, fed", "conditions": "0.035 mg, multiple doses", "quantity": "AUC(0-24 h), geometric mean", "value": "0.916 ng·h/mL"}
{"Compound": "O=C(CCCN1CCC(O)(c2ccc(Cl)cc2)CC1)c1ccc(F)cc1", "system": "water", "quantity": "solubility", "value": "< 1000 µg/mL"}
{"Compound": "CC(C)(CO)c1cc2cc(NC(=O)C3(c4ccc5c(c4)OC(F)(F)O5)CC3)c(F)cc2n1C[C@@H](O)CO", "system": "FaSSIF", "conditions": "literature value", "quantity": "solubility", "value": "119 µg/mL"}
{"Compound": "CNC(C)C1CCC(N)C(OC2C(N)CC(N)C(OC3OCC(C)(O)C(NC)C3O)C2O)O1 (stereo not shown)", "tested on": "Escherichia coli", "system": "clinical isolate RKI-No_602/16", "quantity": "MIC", "value": "≤ 0.5 µg/mL"}
{"Compound": "N=C(N)c1ccc(OCCCCCOc2ccc(C(=N)N)cc2)cc1", "system": "human", "quantity": "free Cmax", "value": "455 nM"}
{"Compound": "CCN1CCN(C(=O)c2ccc(-n3nc(-c4cccnc4)c4c3-c3sc(NC(C)=O)nc3CC4)cc2)CC1", "system": "mouse", "conditions": "intravenous", "quantity": "half-life", "value": "0.25 h"}
{"Compound": "CO[C@H]1C[C@@H]2CC[C@@H](C)[C@@](O)(O2)C(=O)C(=O)N2CCCC[C@H]2C(=O)O[C@H]([C@H](C)C[C@@H]2CC[C@@H](O)[C@H](OC)C2)CC(=O)[C@H](C)/C=C(\\C)[C@@H](O)[C@@H](OC)C(=O)[C@H](C)C[C@H](C)/C=C/C=C/C=C/1C", "system": "water", "quantity": "solubility", "value": "< 1000 µg/mL"}
{"Compound": "O=C([O-])CN1CCN(CC(=O)[O-])CCN([C@H](CO)[C@H](O)CO)CCN(CC(=O)[O-])CC1.[Gd+3] (racemic)", "conditions": "0.1 mmol/kg", "quantity": "half-life", "value": "1.78 ± 0.43 h"}
{"Compound": "COc1ccccc1OCC(O)CN1CCN(CC(=O)Nc2c(C)cccc2C)CC1 (stereo not shown)", "system": "human adults", "conditions": "extended-release preparation", "quantity": "elimination half-life", "value": "7 h"}
{"note": "Repeated from above:"}
{"Compound": "Nc1ncnc2c1ncn2[C@@H]1O[C@H](CO)C[C@@H]1F", "system": "human", "conditions": "4.5 mg/kg", "quantity": "oral bioavailability", "value": "65 to 75%"}
{"Compound": "CN(C)C(=O)c1cc2cnc(Nc3ccc(N4CCNCC4)cn3)nc2n1C1CCCC1", "system": "human", "conditions": "400 mg single dose, with: ritonavir 100 mg twice daily for 14 days", "scale": "reference: compound alone", "quantity": "increase in AUCinf", "value": "3.2 fold"}
{"Compound": "CC(=O)Oc1cccc2c1C(=O)c1c(OC(C)=O)cc(C(=O)O)cc1C2=O", "system": "human", "conditions": "concentration not given, clinical", "quantity": "diarrhoea incidence", "value": "41%"}
{"Compound": "CC(C)C[C@H](NC(=O)[C@H](Cc1ccccc1)NC(=O)c1cnccn1)B(O)O", "system": "human patients", "quantity": "peripheral neuropathy incidence", "value": "30 to 60%"}
